# Assay results from different studies.
# A part holds a random share of what one study measured.

# Series 1 — technique: protein binding microarray; form: double-stranded DNA, one strand shown; sample: in vitro; tested at: not given; relative to: not given; reading: higher = stronger binding
# Target: Histone acetyltransferase KAT6A, both winged helices, GST fusion (KAT6A, Homo sapiens, UniProt Q92794, residues 1-181)
# Setting: 8-mer, flanks averaged, mean of 2 arrays, mostly near background
# Target sequence (chain): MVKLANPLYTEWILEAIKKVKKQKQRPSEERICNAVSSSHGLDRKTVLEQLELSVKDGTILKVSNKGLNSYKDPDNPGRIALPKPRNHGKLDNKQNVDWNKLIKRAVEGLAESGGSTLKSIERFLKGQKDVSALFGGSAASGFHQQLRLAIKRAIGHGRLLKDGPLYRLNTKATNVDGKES
Strand,E-score
CCGGGTCC,0.226
AGTTATGC,0.0905
CATCTTTA,-0.0221
CGCCGCAC,0.293
AGTTAAAC,-0.0795
CACAAACA,-0.134

# Series 2 — technique: universal PBM; form: double-stranded DNA, one strand shown; sample: in vitro; tested at: not given; reading: higher = stronger binding
# Target: Sal-like protein 4, full length isoform B (SALL4, Homo sapiens, UniProt Q9UJQ4-2, residues 1-616)
# Setting: 8-mer, flanks averaged, mean of replicates
# Residues (chain): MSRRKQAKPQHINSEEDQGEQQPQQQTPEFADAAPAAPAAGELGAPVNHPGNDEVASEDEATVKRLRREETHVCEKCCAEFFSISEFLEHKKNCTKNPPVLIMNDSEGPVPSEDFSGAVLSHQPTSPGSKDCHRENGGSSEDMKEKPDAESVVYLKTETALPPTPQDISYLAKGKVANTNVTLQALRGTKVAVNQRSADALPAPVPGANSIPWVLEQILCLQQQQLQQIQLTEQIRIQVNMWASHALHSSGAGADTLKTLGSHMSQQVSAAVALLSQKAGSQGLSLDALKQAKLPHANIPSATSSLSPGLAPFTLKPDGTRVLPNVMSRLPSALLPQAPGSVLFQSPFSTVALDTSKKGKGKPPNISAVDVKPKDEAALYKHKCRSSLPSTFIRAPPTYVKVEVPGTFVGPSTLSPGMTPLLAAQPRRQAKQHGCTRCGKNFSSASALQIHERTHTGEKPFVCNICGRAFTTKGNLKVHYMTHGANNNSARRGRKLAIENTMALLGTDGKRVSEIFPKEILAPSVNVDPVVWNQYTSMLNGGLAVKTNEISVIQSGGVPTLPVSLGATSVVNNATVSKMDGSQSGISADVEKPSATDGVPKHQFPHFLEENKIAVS
Strand,E-score
CACTCTGC,-0.112
GGTTTAGA,0.106
GCCAATTA,0.161
ATCCGAAC,-0.0766
ACTGGAAA,0.0282

# Series 3 — technique: competition protein-binding microarray; form: double-stranded DNA, one strand shown; sample: in vitro; tested at: 2 µM; with: Pho4 competitor, 0.05 µM; reading: higher = stronger binding; constant ends, left off below: … GTCTTGATTCGCTTGACGCTGCTG
# Target: Centromere-binding protein 1, full length, His-tagged (CBF1, Saccharomyces cerevisiae, UniProt P17106, residues 1-351)
# Chain of UniProt P17106 (whole entry, looked up): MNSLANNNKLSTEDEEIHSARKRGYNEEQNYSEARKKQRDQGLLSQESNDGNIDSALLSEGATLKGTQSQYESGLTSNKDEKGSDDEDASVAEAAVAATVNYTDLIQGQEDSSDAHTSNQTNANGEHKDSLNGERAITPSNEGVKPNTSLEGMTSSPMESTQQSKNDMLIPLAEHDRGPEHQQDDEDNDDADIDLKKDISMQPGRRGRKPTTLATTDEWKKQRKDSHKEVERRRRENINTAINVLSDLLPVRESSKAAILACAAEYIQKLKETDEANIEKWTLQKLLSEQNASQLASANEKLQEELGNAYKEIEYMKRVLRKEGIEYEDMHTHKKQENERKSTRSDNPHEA
# Setting: whole 60-bp probe, lowest competitor level
Strand,fluorescence intensity
AAGATTACCAATCACCACGTTATTTGAGAGAGGATG,114 a.u.
CTTTCCCGATCTTGGATGGTGGGTGTAGCACATTTG,78.7 a.u.
TTGTTCCTCTGAAAGCACGGGCCGGCGCACTCCAAT,71.8 a.u.
TGGCGCTATCTAAATTCATGATGAAACTCGATGGCC,65.7 a.u.
CGGGGTTAAGTTTGGCACGTGTTTTGCTTGCAGCAG,1350 a.u.

# Mixed results
Substance,target,test,system,setting,scale,measurement,value
"PhoQ, residues 284 288 289 292 302 303 ASTSDA","PhoP, residues 12 14 15 18 19 NNFVT (Escherichia coli, UniProt P23836)","Sort-seq, refers to: YFP reporter",E. coli,"PhoQ-PhoP variant library, with: 10 µM Mg2+","relative to: high Mg2+ state, higher = stronger signaling",fold induction,4.28
